# Measurements from different studies.
# Numbered parts are unrelated; each lists some results of a single study.

# Block 1 — method: protein-binding microarray; molecule type: double-stranded DNA, one strand shown; matrix: in vitro; concentration: 940 nM top; notes: 60-bp whole probe; with: salmon DNA 0.4 mg/ml; relative to: random background probes; direction: higher = stronger binding; shared flanks, not repeated: GCCTAGCAC … GTCTTGATTCGCTTGACGCTGCTG
# Target: Interferon regulatory factor 5, full length, phosphomimetic (IRF5, Homo sapiens, UniProt Q13568-2, residues 1-514, S451D/S453D/S456D/S462D)
Oligonucleotide,fitted relative affinity [z-score]
GACGGGTTCGGGTATCGGGACGTGCTA,0.763
GCCGATATCAGACTGGAGACGTGCTAG,-0.598
AAAGATTTATCAAATGTGGGAGTGCTA,-0.59
GACGGACTGAGACTGGAGACGTGCTAG,-0.322
GACGAACTGGGGTTTCGAGAAGTGCTA,1.6
ATTTAGTATTACCTATTTCTGTGCTAG,0.536
GACGGTTTCGGGATCGGGACGTGCTAG,7.51
TTAGGTATCGACTATCTGTTAGTGCTA,5.93
GACGCTATCGGGTTTCGGGACGTGCTA,2.32
GGGCATTTAGAAAATGGAAATGTGCTA,-0.33
TCATGTTTACAGATGTTACTGTGCTAG,-0.142
GACGGACTGGACTATCGGGCCGTGCTA,-0.75
GACGATTTCAGTCTCGACACGTGCTAG,1.69
GACGATTTCGGGTTTCGATACGTGCTA,5.15
TTAGGTTTCCTGCTCCTTTAGTGCTAG,0.96
TTTTTTTCATATATATATGAGTGCTAG,0.569
GACGATATCAGTTTAGAGACGTGCTAG,0.212
GACGGCATCCTTATCCTGACGTGCTAG,-0.399
GACGGTATCCTTATCTTGACGTGCTAG,0.386
GACGGACTGGTGTATCGGGACGTGCTA,-0.0984
TCATACCTCATCTTCCTCACTGTGCTA,1.42
TTAGGTTTCGGGACTGGGATAGTGCTA,7.27
GACGGTTTCGCTCTCGGGACGTGCTAG,8.73

# Block 2 — method: RNA Bind-n-Seq; molecule type: RNA; matrix: in vitro; concentration: not given; relative to: input RNA pool; direction: higher = stronger binding
# Target: RING finger protein unkempt homolog, zinc fingers 1-6, GST-SBP tag (UNK, Homo sapiens, UniProt Q9C0B0, residues 30-357)
# Sequence of UniProt Q9C0B0 (30-357, looked up): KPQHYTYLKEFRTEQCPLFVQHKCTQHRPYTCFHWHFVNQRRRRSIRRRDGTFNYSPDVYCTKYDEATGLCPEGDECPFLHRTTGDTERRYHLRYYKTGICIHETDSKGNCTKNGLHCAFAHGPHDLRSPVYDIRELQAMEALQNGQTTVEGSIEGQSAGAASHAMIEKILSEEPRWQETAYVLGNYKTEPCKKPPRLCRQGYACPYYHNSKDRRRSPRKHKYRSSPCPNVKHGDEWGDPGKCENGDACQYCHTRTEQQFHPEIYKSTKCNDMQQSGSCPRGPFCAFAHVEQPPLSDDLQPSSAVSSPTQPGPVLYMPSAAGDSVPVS
# Notes: RNA with constant flanks, human-mouse chimeric sites, ends assumed
# Shared flanks, not repeated: GGGAGUUCUACAGUCCGACGAUC … CAACAGAGGAUUGAGCAUCA
Oligonucleotide,bound/input enrichment [ratio]
AUGGAACAUUUCGAUGCAUCACUUAGUACCUAUUUCAAGGCCUUCCUGGGCCCCCGAGAUACAAGAGUCAAAGGAUGGUUUCUUCUGGACAAUUACAUCCCUACGUUUGUCUGUUCUGUU,0.419
GGCCUGGGACCGUCCUGGGCUAGUACAAAUAGCGGCAGUGGAGGCUCGAGAGGAAAGUUUGUUAGUGAGGCAGUGGUUAGAGGCCGUCAUGUACGGUCCUUUACUCGUAAAAAUCCUUCU,0.4
AAAGAGUGGAUAGAGUGUGCACACGGGAUCGGUGGGACCCGGGCGAAGAAAGAGUGCAAGAUAGAGUUCGAUGACUUCGAAGAGUGCUUGCUUCGGUAGAAAACGAUGAGGCGAAUGCAU,0.461
CUCAUGGCUGCAGAAACAGGAAGUGGAAAAACUGGUGCAUUUAGUAUUCCCGUUAUCCAGAUAGUUUAUGAAACUCUGAAAGACCAACAGGAAGGAAAGAAAGGGAAAACAACUAUUAAA,0.858
UUACCCGAGAACGAGGAUGAGCUGGAGAGCACCAAUAGACGCUAUACCAAGAGGGACUGCAGCACUUUCCUCAGAACUAGUGAGACGGGCAUCGUGGACCAGGUCAUGGUCACUCUCAAC,2.2
UGGCGCCUGCGCUCCCCACUCGUGUUUUUAAGUGUAUUUUUAUAAGACAUGUGUAUUUACAAUUGAGCUUUUGUUACAUAAUGCUGAAAUGCUACUGGAGAUUAUGAAAAAAUGUUAAAU,0.198
CUGUUUUGACAGCCACACAAUCUUGGCAUGUAUUAAGAAAAAAAAAAAUCCCUGUUCAAGUAGUUUUUCCACCUAUCAGCACUGAGUAAAUGCCAUAACUCCGCGGAAAUGGUCUAAAUA,0.324
UAAGUCCUGUGCCAGCACUUCGCUCAUAAAGUUUUAAAUUCUGGACCAAUAGUGUUUGUUUCCUGAUUAUUGUAUCCAAUACUUUGCGUACUAUGUGACUCACUCUUCUGGAUAAAUAAA,1.88
AAAGUGAUGACUAUGUUUGUCCAACGACAGGUAUUUUCGGAGAGCAAAGAUGAGAUUGCGUUAGUCCUCUAUGGCACAGAUGGCACUGAUAAUGCCCUUUCUGGUGGGGACCAGUAUCAG,0.237
ACCAUUUUCGCGGUUCAGGCUUUGUGUGUAGUUCACUUACGGUAUUAAAUUAUUAUUGCCCUUAGUUUAUAAUAAGGAUUACAAUUGUUAAAGAGGUUACUGAAUGUUACUCUGAAACUU,1.37
ACUCAGAGAUCCACCUCCCAAAGUGCUGGGAGUAAAGGUGUGGCCACCACACCUAACUUGAUGGAUAUAUAUUUUUUCUCUUUUAUGUCUUCCUGUUCGUCCAGGGAAGAAAGAUUUGUU,0.88

# Block 3 — method: RNA Bind-n-Seq; molecule type: RNA; matrix: in vitro; concentration: 365 nM; relative to: no-protein control; direction: higher = stronger binding
# Target: RNA binding protein fox-1 homolog 2, RRM domain, GST-SBP tag (RBFOX2, Homo sapiens, UniProt O43251-10, residues 100-194)
# Notes: natural RNA segment, single round, ends assumed
# Shared flanks, not repeated: GGGAGUUCUACAGUCCGACGAUC … UGGAAUUCUCGGGUGCCAA
# Construct (chain): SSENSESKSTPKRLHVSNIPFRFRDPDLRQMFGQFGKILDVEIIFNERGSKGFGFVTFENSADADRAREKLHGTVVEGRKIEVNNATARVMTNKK
Oligonucleotide,RBNS enrichment (R)
CCCCCCCACCUCAGCCUCCCAAAGUGCUGGGAUUACAGGCGUGAGGCAUCACACCUGCCUCUGUUGGCUUUUUAGUUAGGAAGGAUCCAGCUAGGCCCGUGUGGUUAGAU,0.269
CAGACUCACUCAACCUCCAGAGAGAGGAGCCAAGCCUAUGGGAAGUGGGGAGGGACUGCCUGAGGCCGCAGCUGGUGGGCCUCCUGCAUGUACUAGCAUCCGCAUUCCUC,23.1
UAAAUGAAUCCCUGGGCAGGGAAUAUGGGCUGGCCGGCUGCACCUUGGUGAACCUGCUGGUUAGGGCAGCAGCAGAGGUGAGGCUGUUCCUCUCUCUCUCUGUCUCUCUC,0.371
UAACUUUAGGUUUACUUUCACUUGUUAUUUGACUUAGCAGGUGCAACAAAAACAAGAAACAAAUGUGCCCACCCCACUUUCCGCUUAACUGAAAAGCUUAAAAUAAAUUU,0.484
UGAAAAGAGAGGAAAGAAUAUAACGUGAAAUGCUAGAUUUGACCUCCUCCCUGUUAUUUCCAAGUAGCUGGGAUUUUAAACUAGAUGACCUCAUUAACCAGUGCUUUACC,0.403
CUUUCUGGCCCUUCCCCGCUCCUAGUUACUAGAUGACCAUACUCAUACUUGCAAAGGAGAGGAGAGAGUGCUAAAGCCUGGUUCUGACUGAGGGCUCUGCGUCCCUGCAG,0.248
AGAAGAGUUUUUAGGUUGAGAAAUGUACUCUGCUUUGCUGAAAAGCCACAGCUUAGGCCCUCAGCCUCACUCCCUGGCUUGCUCAGUGCCUACAGCCCUGUUACCUGAUA,0.302
AAAUGUAUCUUUUGGUUGUUUGAUUUUUCUUUCUUUCUUUGUAAAUAGUUCUGAGUUCUGUCAAAUGCCGUGAAAGUAUUUGCUAUAAUAAAGAAAAUUCUUGUGACUUU,0.431
AGAACAGUGUGGAGCUUGAGAAAGAGAACUUUAAAAAUUAGAGGGUCCCUUUCUGCAGAGGAAGGGAUGCUCGCAGGGUGGCAGUGGCCCAGCCCCAGCCUCAGGGACGG,0.506
UCUUCACCAUUCCUCCCAGCUCCACAUCUUAAGGAUGCUUACGGGAGACGAAGCUGUGUCAUCAAGAGCUCAGUGGGUGCGAGGAAAGUAUGAUCCAGCGCUCAGCCUUC,1.07
AGAACACUUCAGUAGCUAGCCCGUCUGGUUGAUUGUGCAUGGAACUGACAUGUUAACACCUGAUCACUCCCCCAGGCCCUUUUCCUGCCCCAUCCCUCCUAGGAAGAGAG,1.9
CCACUUGGCUCUGUCCUCCCCAUUUUAGCCACCUCUGUAUUUAUGUUGCUUAUUCGUCUGUUUUUAUGGUUUGUUUUGUUUUUUUACUGGGUUGUGUUUAUAUUCGGGGG,3.01

# Block 4 — method: universal PBM; molecule type: double-stranded DNA, one strand shown; matrix: in vitro; concentration: not given; direction: higher = stronger binding
# Target: Sal-like protein 4, full length isoform B (SALL4, Homo sapiens, UniProt Q9UJQ4-2, residues 1-616)
# Notes: 8-mer, flanks averaged, mean of replicates
# Residues (chain): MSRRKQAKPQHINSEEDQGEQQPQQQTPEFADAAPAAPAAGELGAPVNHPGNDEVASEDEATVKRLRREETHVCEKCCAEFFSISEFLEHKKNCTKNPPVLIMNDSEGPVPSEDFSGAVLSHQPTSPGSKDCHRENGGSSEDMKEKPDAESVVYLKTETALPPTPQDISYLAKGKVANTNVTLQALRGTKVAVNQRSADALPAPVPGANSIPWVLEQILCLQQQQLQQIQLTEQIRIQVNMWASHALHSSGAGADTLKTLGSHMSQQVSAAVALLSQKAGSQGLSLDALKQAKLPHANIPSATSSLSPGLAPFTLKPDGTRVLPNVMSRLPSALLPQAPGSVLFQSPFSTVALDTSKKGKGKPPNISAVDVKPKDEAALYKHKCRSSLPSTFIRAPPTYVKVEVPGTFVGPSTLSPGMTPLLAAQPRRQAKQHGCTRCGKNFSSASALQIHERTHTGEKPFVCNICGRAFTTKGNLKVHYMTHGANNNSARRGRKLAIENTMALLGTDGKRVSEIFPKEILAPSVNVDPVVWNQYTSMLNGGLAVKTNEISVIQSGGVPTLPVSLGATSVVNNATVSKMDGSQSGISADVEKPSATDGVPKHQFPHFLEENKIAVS
Oligonucleotide,E-score
CTCAACTC,-0.0506
ATAATCAA,0.337
AACTATCA,0.224
GATCCATA,0.307
ACCGAGAT,0.0616
GCGAATGA,0.134
ACACCGCT,-0.241
CAGGAGAA,-0.0312
GAAGAAAA,0.198
AGCCGCGA,-0.338
AGCACGGG,-0.2
AGAGCAAC,-0.22
CTTCTAGC,-0.204
CCCAATGC,-0.151
ACGATCGA,0.0483
AGTCTATA,0.248
CGTACATA,0.25
AAACCCGG,-0.269

# Some of these lines once more (block 1):
Oligonucleotide,fitted relative affinity [z-score]
GACGGACTGGTGTATCGGGACGTGCTA,-0.0984
GACGAACTGGGGTTTCGAGAAGTGCTA,1.6
TTAGGTTTCGGGACTGGGATAGTGCTA,7.27
GACGGTTTCGCTCTCGGGACGTGCTAG,8.73
GACGGACTGGACTATCGGGCCGTGCTA,-0.75
AAAGATTTATCAAATGTGGGAGTGCTA,-0.59
